Assay results gathered from unrelated publications.
Protocols differ between the studies behind these lines. “And” joins repeats or separate records; there may be more than shown. ± gives the spread as reported.

For `Cc1ccc(OCCN(C)C)cc1C(=O)N[C@H](C)c1cc(-c2ccnn2C)nc2ccccc12`, the viability was 4.04% and 3.68% (Vero E6; 125 µM).
With `CCCCCCCCCCCCCCC(=O)N[C@@H](CCCCNC(=O)CN1CCN(CC(=O)O)CCN(CC(=O)O)CCN(CC(=O)O)CC1)C(=O)N[C@@H](CCC(=O)NCCCC[C@@H]1NC(=O)[C@@H](Cc2ccccc2)NC(=O)[C@H](CC(=O)O)NC(=O)CNC(=O)[C@H](CCCNC(=N)N)NC1=O)C(=O)NCCCC[C@@H]1NC(=O)[C@@H](Cc2ccccc2)NC(=O)[C@H](CC(=O)O)NC(=O)CNC(=O)[C@H](CCCNC(=N)N)NC1=O` [indium-111 labelled] the tumour uptake was 8.59 ± 0.24 %ID/g (female BALB/c nude mice, U-87 MG xenograft, tumour; intravenous, 4 h).
`N=C(N)NCCC[C@@H]1NC(=O)[C@H](CCCCNC(=O)CCC(NC(=S)Nc2ccc(CC3CN(CC(=O)O)CCN(CC(=O)O)CCN(CC(=O)O)CCN3CC(=O)O)cc2)C(=O)NCCCC[C@@H]2NC(=O)[C@@H](Cc3ccc(O)cc3)NC(=O)[C@H](CC(=O)O)NC(=O)CNC(=O)[C@H](CCCNC(=N)N)NC2=O)NC(=O)[C@@H](Cc2ccc(O)cc2)NC(=O)[C@H](CC(=O)O)NC(=O)CNC1=O` (stereo partly shown) [scandium-44 labelled] has a tissue uptake of 0.008 ± 0.002 %ID/g (ex vivo γ-counting; female athymic nude mice, U-87 MG xenograft, blood; intravenous, 4 h, together with: cRGD 50 mg/kg blocking).
`Cc1ccnc(-c2cc(C(=O)NCCCCCC(=O)N[C@@H](CCCNC(=N)N)C(=O)N[C@@H](CCCNC(=N)N)C(=O)N[C@@H](Cc3c[nH]c4ccccc34)C(=O)N[C@@H](Cc3c[nH]c4ccccc34)C(=O)N[C@@H](CCCNC(=N)N)C(=O)N[C@@H](Cc3c[nH]c4ccccc34)C(=O)N[C@@H](Cc3c[nH]c4ccccc34)C(=O)N[C@@H](CCCNC(=N)N)C(=O)N[C@@H](CCCNC(=N)N)C(N)=O)ccn2)c1` (stereo in doubt) — result for “stability in solution”: “stable” (DMSO, PBS, supplemented RPMI; 25 µM, 7 d, 37 °C).
The organ weight of `O=C1NC2(CC2)COc2ncc(F)cc2[C@H]2COCCN2c2ccn3ncc1c3n2` is reported as 2.12 ± 0.106 g (Sprague-Dawley rat, male, brain; oral, 20 mg/kg/day, 4 weeks).
The tissue-to-tissue ratio of `CC(C)C[C@@H]1NC(=O)[C@H](CC(=O)O)NC(=O)CNC(=O)[C@H](CCCNC(=N)N)NC(=O)[C@H](Cc2ccccc2)NC(=O)[C@H](CCCCNC(=O)CCc2cn(CCCNC(=O)CN3CCN(CC(=O)O)CCN(CC(=O)O)CCN(CC(=O)O)CC3)nn2)N(C)C(=O)[C@H]2CCCN2C(=O)[C@H](Cc2ccccc2)NC(=O)[C@H](C)NC1=O` is reported as 3.9 ± 2.8 (female CB17 SCID mice, tumour and eye; intravenous, dose not given, 90 min, 177Lu-labelled; relative to: tumour over eye).
For `CCCCCCCCCCCCCCCCCCCCCCCCCC(=O)O[C@H](CCCCCCCCCCCCCC)[C@@H](O)[C@H](CO[C@H]1O[C@H](CO)[C@H](O)[C@H](O)[C@H]1O)NC(=O)OCc1ccc(NC(=O)[C@H](CCCNC(N)=O)NC(=O)[C@@H](NC(=O)CCCCCn2cc(CCC(=O)N[C@@H](Cc3ccccc3)C(=O)N[C@@H](Cc3ccccc3)C(=O)N[C@@H](CCCNC(=N)N)C(=O)N[C@@H](CCCCN)C(=O)N[C@@H](CO)C(=O)N[C@H](C(=O)N[C@H](C(=O)N[C@@H](CC(N)=O)C(=O)N[C@@H](Cc3ccccc3)C(=O)N[C@@H](CCC(=O)O)C(=O)N[C@@H](CCCCN)C(=O)N[C@@H](CC(C)C)C(=O)O)[C@@H](C)CC)[C@@H](C)CC)nn2)C(C)C)cc1`, the α-GalCer released was less than 0.05% (HPLC-ESI-MS/MS; aqueous ammonium acetate; 10 µg/mL, eight days, pH 5.0, 20 °C).
`CC(C)C[C@@H]1NC(=O)[C@H](CC(=O)O)NC(=O)CNC(=O)[C@H](CCCNC(=N)N)NC(=O)[C@H](Cc2ccccc2)NC(=O)[C@H](CCCCNC(=O)CCc2cn(CCCNC(=O)CCC(C(=O)O)N3CCN(CC(=O)O)CCN(CC(=O)O)CCN(CC(=O)O)CC3)nn2)N(C)C(=O)[C@H]2CCCN2C(=O)[C@H](Cc2ccccc2)NC(=O)[C@H](C)NC1=O` (stereo partly shown) has a tissue-to-tissue ratio of 2.8 ± 0.2 (female CB17 SCID mice, tumour and lung; intravenous, dose not given, 90 min, 177Lu-labelled; relative to: tumour over lung).
`CCCC[C@H](NC(=O)CN1CCC(NC(=O)CN2CCN(CC(N)=O)CCN(CC(N)=O)CCN(CC(N)=O)CC2)CC1)C(=O)N[C@H]1CC(=O)NCCCC[C@@H](C(N)=O)NC(=O)[C@H](Cc2c[nH]c3ccccc23)NC(=O)[C@H](CCCNC(=N)N)NC(=O)[C@@H](Cc2ccccc2)NC(=O)[C@H](Cc2c[nH]cn2)NC1=O` [lead-203 labelled] gave a logD of -2.43 ± 0.26 (shake flask; n-octanol/PBS; pH 7.4, 203Pb-labelled).
With `Cc1ccc(OCCN(C)C)cc1C(=O)N[C@H](C)c1cc(-c2cnn(C(F)F)c2)nc2ccccc12` the viability was -2.31% and -2.69% (Vero E6; 125 µM).
`CC(=O)N[C@@H](CC(C)C)C(=O)N[C@H](C(=O)N[C@@H](Cc1ccccc1)C(=O)N[C@]1(C)CCCCCC/C=C/CCC[C@@](C)(C(=O)N[C@@H](C)C(=O)N[C@@H](C)C(=O)N[C@@H](C)C(=O)N[C@@H](C)C(=O)N[C@@H](C)C(=O)N[C@H](C)C(N)=O)NC(=O)[C@H](CC(C)C)NC(=O)[C@H](CCCCNC(=O)CCNC(=O)C[C@@H]2N=C(c3ccc(Cl)cc3)c3c(sc(C)c3C)-n3c(C)nnc32)NC(=O)[C@H](C)NC(=O)[C@H](Cc2c[nH]c3ccccc23)NC(=O)[C@H](Cc2ccc(O)cc2)NC(=O)[C@H](C)NC1=O)[C@@H](C)O` has a half-life of 5.01 h (male C57BL/6 mouse, plasma; intravenous, 3 mg/kg).
The tissue uptake of `C[C@@H](O)[C@@H]1NC(=O)[C@@H](NC(=O)CCOCCOCCOCCOCCNC(=O)c2ccc(NN)nc2)CSSC[C@@H](C(=O)O)NC(=O)[C@H](Cc2c[nH]cn2)NC(=O)[C@H](CO)NC(=O)[C@H](Cc2ccccc2)NC(=O)[C@@H]2CCCN2C(=O)[C@H](CO)NC(=O)[C@@H]2CCCN2C1=O` [technetium-99m labelled] is reported as 0.27 ± 0.1 %ID/g (mouse HCT-116 xenograft, spleen; intravenous, 37 MBq, postmortem after imaging).
The tumour uptake of `CC(C)C[C@H](NC(=O)[C@@H](N)Cc1ccccc1)C(=O)N[C@@H](C)C(=O)N[C@@H](CS)C(=O)N1CCC[C@H]1C(=O)N[C@@H](CCC(=O)O)C(=O)N[C@H](C(=O)N[C@@H](Cc1c[nH]cn1)C(=O)N[C@@H](CS)C(=O)N[C@H](C(=O)NCC(=O)N[C@@H](CO)C(=O)N[C@@H](Cc1c[nH]c2ccccc12)C(=O)N[C@@H](CCCCNC(=O)CN1CCN(CC(=O)O)CCN(CC(=O)O)CCN(CC(=O)O)CC1)C(N)=O)[C@@H](C)O)[C@@H](C)O` [gallium-68 labelled] is reported as 2.07 ± 0.61 %ID/g (PET/CT; C57BL/6J mice, B16-F10 tumour, tumour; intravenous, 3.7 MBq, 1 h).

Repeated from above:
The tissue-to-tissue ratio of `CC(C)C[C@@H]1NC(=O)[C@H](CC(=O)O)NC(=O)CNC(=O)[C@H](CCCNC(=N)N)NC(=O)[C@H](Cc2ccccc2)NC(=O)[C@H](CCCCNC(=O)CCc2cn(CCCNC(=O)CN3CCN(CC(=O)O)CCN(CC(=O)O)CCN(CC(=O)O)CC3)nn2)N(C)C(=O)[C@H]2CCCN2C(=O)[C@H](Cc2ccccc2)NC(=O)[C@H](C)NC1=O` is reported as 3.9 ± 2.8 (female CB17 SCID mice, tumour and eye; intravenous, dose not given, 90 min, 177Lu-labelled; relative to: tumour over eye).
For `CCCCCCCCCCCCCCCCCCCCCCCCCC(=O)O[C@H](CCCCCCCCCCCCCC)[C@@H](O)[C@H](CO[C@H]1O[C@H](CO)[C@H](O)[C@H](O)[C@H]1O)NC(=O)OCc1ccc(NC(=O)[C@H](CCCNC(N)=O)NC(=O)[C@@H](NC(=O)CCCCCn2cc(CCC(=O)N[C@@H](Cc3ccccc3)C(=O)N[C@@H](Cc3ccccc3)C(=O)N[C@@H](CCCNC(=N)N)C(=O)N[C@@H](CCCCN)C(=O)N[C@@H](CO)C(=O)N[C@H](C(=O)N[C@H](C(=O)N[C@@H](CC(N)=O)C(=O)N[C@@H](Cc3ccccc3)C(=O)N[C@@H](CCC(=O)O)C(=O)N[C@@H](CCCCN)C(=O)N[C@@H](CC(C)C)C(=O)O)[C@@H](C)CC)[C@@H](C)CC)nn2)C(C)C)cc1`, the α-GalCer released was less than 0.05% (HPLC-ESI-MS/MS; aqueous ammonium acetate; 10 µg/mL, eight days, pH 5.0, 20 °C).
